Results from different studies.
Each numbered part is a random draw from the data of one study; scales do not carry over between parts. Values joined by “and” are separate records of one study, mostly repeats; a detail may differ. ± marks the error that the study gave.
Chain of UniProt P30291 (whole entry, looked up): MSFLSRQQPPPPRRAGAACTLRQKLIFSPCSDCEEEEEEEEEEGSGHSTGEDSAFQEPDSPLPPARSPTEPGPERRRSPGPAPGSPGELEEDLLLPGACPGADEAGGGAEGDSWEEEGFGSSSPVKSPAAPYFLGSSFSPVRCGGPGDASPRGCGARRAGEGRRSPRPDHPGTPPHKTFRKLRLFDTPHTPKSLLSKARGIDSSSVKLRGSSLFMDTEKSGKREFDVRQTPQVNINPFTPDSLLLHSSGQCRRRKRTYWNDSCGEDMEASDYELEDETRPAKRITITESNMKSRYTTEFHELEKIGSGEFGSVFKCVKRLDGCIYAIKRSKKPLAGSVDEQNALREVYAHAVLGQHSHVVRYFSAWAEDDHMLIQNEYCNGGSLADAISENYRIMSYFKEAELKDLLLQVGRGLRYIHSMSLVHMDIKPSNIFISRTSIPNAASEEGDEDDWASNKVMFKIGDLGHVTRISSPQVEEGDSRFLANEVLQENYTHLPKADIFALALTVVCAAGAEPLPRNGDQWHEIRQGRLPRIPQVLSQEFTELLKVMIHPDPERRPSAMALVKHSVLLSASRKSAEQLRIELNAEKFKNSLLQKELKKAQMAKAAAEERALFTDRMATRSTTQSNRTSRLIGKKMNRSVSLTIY
Chain of UniProt P51451 (whole entry, looked up): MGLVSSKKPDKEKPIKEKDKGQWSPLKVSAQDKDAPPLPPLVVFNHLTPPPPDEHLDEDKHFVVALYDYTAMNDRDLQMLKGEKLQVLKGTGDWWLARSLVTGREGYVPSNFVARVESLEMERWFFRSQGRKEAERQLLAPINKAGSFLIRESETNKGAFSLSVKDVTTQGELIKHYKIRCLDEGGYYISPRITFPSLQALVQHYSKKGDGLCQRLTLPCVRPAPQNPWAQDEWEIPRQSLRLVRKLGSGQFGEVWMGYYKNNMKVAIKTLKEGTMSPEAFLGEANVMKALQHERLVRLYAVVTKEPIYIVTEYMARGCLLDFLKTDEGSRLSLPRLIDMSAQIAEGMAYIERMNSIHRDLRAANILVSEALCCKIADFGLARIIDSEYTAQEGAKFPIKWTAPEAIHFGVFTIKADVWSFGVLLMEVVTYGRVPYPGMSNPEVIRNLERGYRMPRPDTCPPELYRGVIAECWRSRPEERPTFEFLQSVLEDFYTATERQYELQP
Chain of UniProt P42336 (whole entry, unmodified, looked up): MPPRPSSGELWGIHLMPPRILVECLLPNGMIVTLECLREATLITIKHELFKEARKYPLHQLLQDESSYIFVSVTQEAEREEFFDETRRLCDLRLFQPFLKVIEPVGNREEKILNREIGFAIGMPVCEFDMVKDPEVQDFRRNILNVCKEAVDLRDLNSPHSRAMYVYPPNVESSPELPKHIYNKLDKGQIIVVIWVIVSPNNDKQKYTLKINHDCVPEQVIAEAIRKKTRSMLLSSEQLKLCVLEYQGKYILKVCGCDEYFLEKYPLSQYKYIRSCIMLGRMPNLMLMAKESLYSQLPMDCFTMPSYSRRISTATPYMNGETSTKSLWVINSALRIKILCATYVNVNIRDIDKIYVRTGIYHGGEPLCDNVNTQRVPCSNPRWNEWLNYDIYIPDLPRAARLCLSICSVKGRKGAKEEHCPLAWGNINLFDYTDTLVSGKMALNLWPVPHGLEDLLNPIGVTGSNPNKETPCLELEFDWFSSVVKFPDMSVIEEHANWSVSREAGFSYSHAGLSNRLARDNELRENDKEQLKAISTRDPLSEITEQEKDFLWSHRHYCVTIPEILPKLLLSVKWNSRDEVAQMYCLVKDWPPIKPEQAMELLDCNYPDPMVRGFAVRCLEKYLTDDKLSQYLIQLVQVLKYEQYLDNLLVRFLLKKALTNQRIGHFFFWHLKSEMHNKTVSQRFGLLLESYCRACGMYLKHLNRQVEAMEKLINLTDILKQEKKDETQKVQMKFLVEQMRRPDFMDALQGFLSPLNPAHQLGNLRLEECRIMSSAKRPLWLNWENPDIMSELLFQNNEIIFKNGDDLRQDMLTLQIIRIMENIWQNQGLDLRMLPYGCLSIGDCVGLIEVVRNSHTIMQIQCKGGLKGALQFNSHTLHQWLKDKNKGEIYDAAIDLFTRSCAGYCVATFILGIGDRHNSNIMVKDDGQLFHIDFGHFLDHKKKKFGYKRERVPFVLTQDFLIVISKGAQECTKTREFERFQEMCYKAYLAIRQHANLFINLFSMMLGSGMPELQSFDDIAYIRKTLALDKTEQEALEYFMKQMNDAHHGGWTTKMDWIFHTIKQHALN
Chain of UniProt P07332 (whole entry, looked up): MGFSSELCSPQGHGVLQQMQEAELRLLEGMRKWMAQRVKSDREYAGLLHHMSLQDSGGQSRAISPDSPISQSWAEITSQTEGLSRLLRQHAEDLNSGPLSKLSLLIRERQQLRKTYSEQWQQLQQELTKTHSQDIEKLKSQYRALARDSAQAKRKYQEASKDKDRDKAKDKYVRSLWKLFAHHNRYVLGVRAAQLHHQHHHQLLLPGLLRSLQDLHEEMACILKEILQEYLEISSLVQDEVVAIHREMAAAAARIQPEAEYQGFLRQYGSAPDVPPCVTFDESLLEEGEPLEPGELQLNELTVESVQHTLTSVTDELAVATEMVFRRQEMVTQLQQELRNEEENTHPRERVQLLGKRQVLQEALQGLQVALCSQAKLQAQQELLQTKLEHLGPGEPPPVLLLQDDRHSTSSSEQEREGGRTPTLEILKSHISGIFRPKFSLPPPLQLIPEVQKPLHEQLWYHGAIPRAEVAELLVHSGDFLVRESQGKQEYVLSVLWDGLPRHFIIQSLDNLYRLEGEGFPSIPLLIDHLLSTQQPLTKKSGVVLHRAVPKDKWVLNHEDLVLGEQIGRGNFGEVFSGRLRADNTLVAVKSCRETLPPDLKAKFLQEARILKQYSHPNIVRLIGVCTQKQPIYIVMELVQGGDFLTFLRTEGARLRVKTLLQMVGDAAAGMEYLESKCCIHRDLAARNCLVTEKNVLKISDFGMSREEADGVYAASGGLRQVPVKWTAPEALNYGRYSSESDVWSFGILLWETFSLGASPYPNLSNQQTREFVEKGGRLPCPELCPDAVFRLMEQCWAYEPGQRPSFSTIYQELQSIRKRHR
Chain of UniProt Q05655 (whole entry, looked up): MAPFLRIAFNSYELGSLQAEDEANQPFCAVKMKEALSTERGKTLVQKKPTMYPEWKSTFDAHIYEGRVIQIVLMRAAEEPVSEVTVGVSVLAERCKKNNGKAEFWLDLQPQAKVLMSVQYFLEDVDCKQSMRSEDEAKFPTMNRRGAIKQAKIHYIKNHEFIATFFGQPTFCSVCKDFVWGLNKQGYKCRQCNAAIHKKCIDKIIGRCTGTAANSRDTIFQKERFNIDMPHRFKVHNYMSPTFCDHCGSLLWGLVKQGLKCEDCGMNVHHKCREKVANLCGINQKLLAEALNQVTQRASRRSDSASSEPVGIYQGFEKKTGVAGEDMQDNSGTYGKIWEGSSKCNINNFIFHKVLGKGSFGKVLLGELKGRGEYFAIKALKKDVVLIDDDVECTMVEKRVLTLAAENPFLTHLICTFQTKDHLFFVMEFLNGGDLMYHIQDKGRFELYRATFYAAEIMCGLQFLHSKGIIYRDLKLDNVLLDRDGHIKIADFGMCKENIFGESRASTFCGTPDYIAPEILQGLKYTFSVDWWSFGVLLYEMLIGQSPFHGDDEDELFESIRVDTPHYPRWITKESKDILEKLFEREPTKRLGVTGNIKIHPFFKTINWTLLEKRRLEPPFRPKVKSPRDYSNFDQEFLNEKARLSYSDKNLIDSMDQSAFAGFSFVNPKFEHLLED
Chain of UniProt O43318 (whole entry, looked up): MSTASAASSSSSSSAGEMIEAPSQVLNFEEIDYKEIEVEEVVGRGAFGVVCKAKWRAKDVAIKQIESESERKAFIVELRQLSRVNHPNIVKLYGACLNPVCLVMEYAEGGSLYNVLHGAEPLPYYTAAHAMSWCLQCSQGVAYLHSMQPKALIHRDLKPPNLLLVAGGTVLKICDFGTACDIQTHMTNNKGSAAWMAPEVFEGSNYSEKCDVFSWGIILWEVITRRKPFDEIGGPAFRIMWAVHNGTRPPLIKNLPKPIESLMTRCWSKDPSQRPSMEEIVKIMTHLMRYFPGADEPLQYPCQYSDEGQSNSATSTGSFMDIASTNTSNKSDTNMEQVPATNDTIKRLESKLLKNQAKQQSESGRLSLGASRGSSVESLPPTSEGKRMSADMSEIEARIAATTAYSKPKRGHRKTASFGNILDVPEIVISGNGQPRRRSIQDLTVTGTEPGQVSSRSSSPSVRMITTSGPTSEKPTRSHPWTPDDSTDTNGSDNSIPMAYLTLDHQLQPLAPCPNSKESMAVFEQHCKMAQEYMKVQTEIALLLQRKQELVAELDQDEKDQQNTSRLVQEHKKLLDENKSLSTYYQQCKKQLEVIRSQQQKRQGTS

Block 1 — cell line: mouse MPNST tumor cells; technique: high-content immunofluorescence imaging; item: nuclear SOX9; concentration: 10 µM; time: 12 h; setting: mean of 2 replicates; baseline: DMSO control; reading: higher = more nuclear SOX9
| Compound | nuclear SOX9 intensity |
| --- | --- |
| O=C(COc1ccccc1Cl)Nc1cc(Cl)ccc1C(=O)O | 117 % of DMSO |
| O=C(Oc1nsnc1N1CCCCC1)N1CCCCC1 | 124 % of DMSO |
| CC(C)(CO)Cc1cc(C(C)(C)C)c(O)c(C(C)(C)C)c1 | 107 % of DMSO |
| CN(C)[C@@H]1C(=O)C(C(N)=O)=C(O)[C@@]2(O)C(=O)C3=C(O)c4c(O)ccc(Cl)c4[C@@H](O)[C@H]3C[C@@H]12 | 107 % of DMSO |
| NCCC(O)(P(=O)(O)O)P(=O)(O)O | 93.4 % of DMSO |
| N#C[C@H](Cc1ccc(O)cc1)c1ccc(O)cc1 | 94.2 % of DMSO |
| CCCC1O[C@@H]2C[C@H]3[C@@H]4CCC5=CC(=O)C=C[C@]5(C)[C@H]4[C@@H](O)C[C@]3(C)[C@]2(C(=O)CO)O1 (stereo partly shown) | 102 % of DMSO and 67.6 % of DMSO |

Block 2 — action: antagonist
Target: Beta-1 adrenergic receptor (ADRB1, Homo sapiens, UniProt P08588)
Chain of UniProt P08588 (whole entry, looked up): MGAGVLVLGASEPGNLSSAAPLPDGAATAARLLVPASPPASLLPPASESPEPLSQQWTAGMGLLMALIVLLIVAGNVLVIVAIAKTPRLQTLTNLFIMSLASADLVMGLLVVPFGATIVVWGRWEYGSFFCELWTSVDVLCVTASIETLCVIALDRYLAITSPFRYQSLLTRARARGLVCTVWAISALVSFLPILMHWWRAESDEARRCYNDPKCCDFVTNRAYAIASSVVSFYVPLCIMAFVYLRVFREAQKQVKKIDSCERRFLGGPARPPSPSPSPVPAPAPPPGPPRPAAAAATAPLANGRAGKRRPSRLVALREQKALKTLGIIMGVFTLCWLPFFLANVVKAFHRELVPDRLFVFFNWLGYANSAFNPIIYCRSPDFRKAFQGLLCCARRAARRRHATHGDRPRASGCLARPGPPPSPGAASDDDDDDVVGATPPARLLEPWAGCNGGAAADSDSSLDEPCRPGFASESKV
| Compound | IC50 [µM] |
| --- | --- |
| COc1ccc(OC)c(C(O)Cn2ccn3nc(-c4ccc(C(C)C)cc4)cc3c2=O)c1 (stereo not shown) | ≥ 100 |
| Cc1noc2c(NCCc3ccccn3)cc(-c3cccnc3)nc12 | ≥ 100 |
| Ic1ccc(Nc2nc(NCCN3CCOCC3)nc(N3CCOCC3)n2)cc1 | ≥ 100 |
| CC(C)(Cc1ccc2ccccc2c1)NCC(O)COc1cccc(Cl)c1C#N (stereo not shown) | ≥ 100 |
| O=c1cc(-c2ccccn2)oc2c(Nc3cccnc3)nccc12 | ≥ 100 |
| O=C(COc1ccccc1)Nc1ccc([C@@H](O)[C@H]2COCC(=O)N2CCCc2ccccc2)cc1 | ≥ 100 |
| c1cc(-c2cc(-c3ccncc3)c3cncn3c2)cc(N2CCOCC2)c1 | ≥ 100 |

Block 3 — read-out: kinase activity; concentration: 10 µM
Structure (SMILES): COc1cc(C(=O)N2CCC(N3CCN(C)CC3)CC2)ccc1Nc1ncc2c(n1)N(C)c1ccccc1C(=O)N2C
| target | remaining activity [%] |
| --- | --- |
| HIPK3 | 102 |
| EPH-A4 | 94 ± 5 |
| MARK1 | 93 ± 2 |

Block 4 — concentration: 1 µM
SMILES: CCS(=O)(=O)c1cc2cc(C[C@](O)(CC(C)(C)c3ccc(F)cc3C(N)=O)C(F)(F)F)[nH]c2cn1
| target | test | remaining binding |
| --- | --- | --- |
| Calcium/calmodulin-dependent protein kinase kinase 2 (CAMKK2, Homo sapiens, UniProt Q96RR4) | cell-free assay, competition with immobilised ligand | 100% |
| Angiopoietin-1 receptor (TEK, Homo sapiens, UniProt Q02763) | cell-free assay, competition with immobilised ligand | 90% |
| Rhodopsin kinase GRK1 (GRK1, Homo sapiens, UniProt Q15835) | cell-free assay, competition with immobilised ligand | 100% |
| Serine/threonine-protein kinase 32A (STK32A, Homo sapiens, UniProt Q8WU08) | cell-free assay, competition with immobilised ligand | 84% |
| Casein kinase I isoform delta (CSNK1D, Homo sapiens, UniProt P48730) | cell-free assay, competition with immobilised ligand | 96% |
| Tyrosine-protein kinase ABL1, phosphorylated (ABL1, Homo sapiens, UniProt P00519, T315I) | cell-free assay, competition with immobilised ligand | 85% |
| Tyrosine-protein kinase ABL1, phosphorylated (ABL1, Homo sapiens, UniProt P00519, F317I) | binding | 94% |
| Proto-oncogene tyrosine-protein kinase ROS (ROS1, Homo sapiens, UniProt P08922) | cell-free assay, competition with immobilised ligand | 100% |
| Tyrosine-protein kinase Blk (BLK, Homo sapiens, UniProt P51451) | cell-free assay, competition with immobilised ligand | 100% |
| Mitogen-activated protein kinase kinase kinase 7 (MAP3K7, Homo sapiens, UniProt O43318) | cell-free assay, competition with immobilised ligand | 100% |
| Phosphatidylinositol 4,5-bisphosphate 3-kinase catalytic subunit alpha isoform (PIK3CA, Homo sapiens, UniProt P42336, E542K) | cell-free assay, competition with immobilised ligand | 66% |
| Wee1-like protein kinase (WEE1, Homo sapiens, UniProt P30291) | cell-free assay, competition with immobilised ligand | 100% |
| Tyrosine-protein kinase Fes/Fps (FES, Homo sapiens, UniProt P07332) | cell-free assay, competition with immobilised ligand | 100% |
| Protein kinase C delta type (PRKCD, Homo sapiens, UniProt Q05655) | cell-free assay, competition with immobilised ligand | 100% |

Some of these lines once more (block 4):
| target | test | remaining binding |
| --- | --- | --- |
| Mitogen-activated protein kinase kinase kinase 7 (MAP3K7, Homo sapiens, UniProt O43318) | cell-free assay, competition with immobilised ligand | 100% |
| Phosphatidylinositol 4,5-bisphosphate 3-kinase catalytic subunit alpha isoform (PIK3CA, Homo sapiens, UniProt P42336, E542K) | cell-free assay, competition with immobilised ligand | 66% |
| Wee1-like protein kinase (WEE1, Homo sapiens, UniProt P30291) | cell-free assay, competition with immobilised ligand | 100% |
